Results from different studies.
Each line is one published result; not all experiments were run side by side. ± gives the spread as reported.

COC(=O)CCCC1C2CCCN3CCCC(CN1C(=O)c1ccc(Cl)cc1)C23 (stereo not drawn)
IC50 (Vesicular stomatitis virus; viral entry; VSV G pseudotyped HIV): > 200 µM

O=C(CCC1CCN(c2cc(NC3CC3)ncn2)CC1)NCc1cccnc1
IC50 (Cedar virus; viral replication, inhibitor; Vero C1008; 48 h): 2.37 µM

O=C(O)CCCC1C2CCCN3CCCC(CN1Cc1ccc(Cl)c(Cl)c1)C23 (stereo not drawn)
IC50 (Vesicular stomatitis virus; viral entry; VSV G pseudotyped HIV): > 200 µM

CC(=O)OC[C@H]1O[C@@H](NC(=O)NC(=O)[C@@H](C)Cc2ccc(C(C)C)cc2)[C@H](OC(C)=O)[C@@H](OC(C)=O)[C@@H]1OC(C)=O
IC50 (human parainfluenza virus 3; viral cytopathicity; Vero): 45 µM

O=C(CCc1nc(-c2ccc(N3CCCC3)cc2)no1)NCCCN1CCOCC1
IC50 (Cedar virus; viral replication, inhibitor; Vero C1008; 48 h): 1.58 µM

CCC1(O)C([N+](=O)[O-])=NNc2nc(C)nn21 (stereo not drawn)
IC50 (unidentified influenza virus; viral replication; MDCK, H1N1; 48 h): 233 µM

C=CC1CN(C(=O)NCC=CCSSSCC=CCNC(=O)N2CC(C=C)OC2=S)C(=S)O1 (stereo not drawn)
IC50 (unidentified influenza virus; viral replication; H3N2): 1.92 µM

N=C(N)NCCC[C@@H]1NC(=O)[C@H](CCCCNC(=O)CNC(=O)CNC(=O)CNC(=O)CC[C@H](NC(=O)CCOCCOCCOCCOCCNC(=O)CC[C@H](NC(=O)CN2CCN(CC(=O)O)CCN(CC(=O)O)CCN(CC(=O)O)CC2)C(=O)NCCOCCOCCOCCOCCC(=O)N[C@@H](CCC(=O)NCC(=O)NCC(=O)NCC(=O)NCCCC[C@@H]2NC(=O)[C@@H](Cc3ccccc3)NC(=O)[C@H](CC(=O)O)NC(=O)CNC(=O)[C@H](CCCNC(=N)N)NC2=O)C(=O)NCC(=O)NCC(=O)NCC(=O)NCCCC[C@@H]2NC(=O)[C@@H](Cc3ccccc3)NC(=O)[C@H](CC(=O)O)NC(=O)CNC(=O)[C@H](CCCNC(=N)N)NC2=O)C(=O)NCC(=O)NCC(=O)NCC(=O)NCCCC[C@@H]2NC(=O)[C@@H](Cc3ccccc3)NC(=O)[C@H](CC(=O)O)NC(=O)CNC(=O)[C@H](CCCNC(=N)N)NC2=O)NC(=O)[C@@H](Cc2ccccc2)NC(=O)[C@H](CC(=O)O)NC(=O)CNC1=O [indium-111 labelled]
tumour uptake (female athymic nude mouse, U-87 MG tumour; intravenous, 3 µCi, 0.5 h, U-87 MG glioma xenograft): 11.4 %ID/g

CCCCCCCCC(=O)NCc1ccc(O)c(OC)c1
IC50 (mouse mAb 1-D6; antibody binding, indirect competitive ELISA; with: coating antigen 5-OVA): 0.223 µg/mL

CN[C@](C)(C[18F])C(=O)O
tracer uptake (SK-OV-3 tumour model; host not given, heart; 1 h, tumour-bearing): 2.7 %ID/g

Cc1nc2n(n1)C(C)(O)C([N+](=O)[O-])=NN2 (stereo not drawn)
IC50 (unidentified influenza virus; viral replication; MDCK, H1N1; 48 h): 472 µM

CN1CCN(C(=O)N[C@@H](Cc2ccccc2)C(=O)N[C@H](/C=C/S(=O)(=O)c2ccccc2)CCc2ccccc2)CC1
IC50 (Vesicular stomatitis virus; viral entry; HEK-293T; pseudovirus): > 0.1 µM

CCC1(O)C([N+](=O)[O-])=NNc2nc(C(F)(F)F)nn21 (stereo not drawn)
IC50 (unidentified influenza virus; viral replication; MDCK, H1N1; 48 h): > 357 µM

O=C(O)CCCC1C2CCCN3CCCC(CN1C(=O)c1ccc(Cl)cc1)C23 (stereo not drawn)
IC50 (Vesicular stomatitis virus; viral entry; VSV G pseudotyped HIV): > 200 µM

CCCC[C@H](NC(=O)CNC(=O)CNC(=O)c1ccc(NN)nc1)C(=O)N[C@H]1CC(=O)NCCCC[C@@H](C(N)=O)NC(=O)[C@H](Cc2c[nH]c3ccccc23)NC(=O)[C@H](CCCNC(=N)N)NC(=O)[C@@H](Cc2ccccc2)NC(=O)[C@H](Cc2c[nH]cn2)NC1=O [technetium-99m labelled]
uptake ratio (C57 mouse, B16/F1 melanoma; 2 h, with: L-lysine; baseline: tumour over skin): 61.3

COC(=O)CCCC1C2CCCN3CCCC(CN1Cc1ccc(Cl)c(Cl)c1)C23 (stereo not drawn)
IC50 (Vesicular stomatitis virus; viral entry; VSV G pseudotyped HIV): > 200 µM

N=C(N)NCCC[C@@H]1NC(=O)[C@H](CCCCNC(=O)CC[C@H](NC(=O)CCOCCOCCOCCOCCNC(=O)CC[C@H](NC(=O)CN2CCN(CC(=O)O)CCN(CC(=O)O)CCN(CC(=O)O)CC2)C(=O)NCCOCCOCCOCCOCCC(=O)N[C@@H](CCC(=O)NCCCC[C@@H]2NC(=O)[C@@H](Cc3ccccc3)NC(=O)[C@H](CC(=O)O)NC(=O)CNC(=O)[C@H](CCCNC(=N)N)NC2=O)C(=O)NCCCC[C@@H]2NC(=O)[C@@H](Cc3ccccc3)NC(=O)[C@H](CC(=O)O)NC(=O)CNC(=O)[C@H](CCCNC(=N)N)NC2=O)C(=O)NCCCC[C@@H]2NC(=O)[C@@H](Cc3ccccc3)NC(=O)[C@H](CC(=O)O)NC(=O)CNC(=O)[C@H](CCCNC(=N)N)NC2=O)NC(=O)[C@@H](Cc2ccccc2)NC(=O)[C@H](CC(=O)O)NC(=O)CNC1=O [indium-111 labelled]
tumour to tissue ratio (athymic nude mice, female, U-87 MG glioma xenograft, tumour and muscle; intravenous, 1 h; baseline: tumour over muscle): 11.8 ± 3.58

CCOC(=O)c1nc2n(n1)C(C)(O)C([N+](=O)[O-])=NN2 (stereo not drawn)
IC50 (unidentified influenza virus; viral replication; MDCK, H1N1; 48 h): > 370 µM

Repeated from above:
COC(=O)CCCC1C2CCCN3CCCC(CN1C(=O)c1ccc(Cl)cc1)C23 (stereo not drawn)
IC50 (Vesicular stomatitis virus; viral entry; VSV G pseudotyped HIV): > 200 µM

O=C(O)CCCC1C2CCCN3CCCC(CN1C(=O)c1ccc(Cl)cc1)C23 (stereo not drawn)
IC50 (Vesicular stomatitis virus; viral entry; VSV G pseudotyped HIV): > 200 µM
